Measured values gathered from unrelated publications.
Numbered parts are unrelated; each lists some results of a single study. Positions count from the first letter of the parent shown.

Sample 1
Target: RNA binding protein fox-1 homolog 2, RRM domain, GST-SBP tag (RBFOX2, Homo sapiens, UniProt O43251-10, residues 100-194)
Method: RNA Bind-n-Seq
Form: RNA
Sample: in vitro
Concentration: 365 nM
Notes: natural RNA segment, single round, ends assumed
Baseline: no-protein control
Reading: higher = stronger binding
Endpoint: RBNS enrichment (R)
Constant ends, left off below: GGGAGUUCUACAGUCCGACGAUC … UGGAAUUCUCGGGUGCCAA
Residues (chain): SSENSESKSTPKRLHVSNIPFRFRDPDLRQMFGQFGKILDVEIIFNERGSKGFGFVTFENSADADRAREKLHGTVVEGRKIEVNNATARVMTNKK
UUUAUUUAUCUCUUCCUGAACCAUGAAUUUCAUAUGUGGAAUAUUGCUAUAUUGACAGAUUCUUGCCUGUCUGUGUUAUUCUAGGAUCUGUUACAGGUCCAUGGCAAUUA: 1.19
GGUUGAGCUUGACAUGGAAAGGAGCAGUUGGCAGGGAAGGAACUUAUUCCCCAAGAGUGGUAACUAACCCACAGCCCUGCUCGGUGUGCCCACCGCUGAGAGGCUGCAGU: 0.864
UAACUUUGCCCACAUUUGCUUCCGGAAGCAGCGCACAGCUGUCUGUAUGUUUAAAAGAUAGCAUCUAGAAUGAUCACUUGUGCUUAGCGUAGCAUUGUAAGCGCUGAAGU: 3.33
GAGAGACUGCCAUACAUAAUAUAUGACUUCCUAGGGAUCUGAAAUCCAUAAACUAAGAGAAACUGUGUAUAGCUUACCUGAACAGGAAUCCUUACUGAUAUUUAUAGAAC: 0.303
AAAUUUUGUUAGGCCACAAAAACACUGCACUGUGAACAUUUUAGAAAAGGUAUGUCAGACUGGGAUUAAUGACAGCAUGAUUUUCAAUGACUGUAAAUUGCGAUAAGGAA: 4.69
GAACCUCUUAAAGGACAACUUUGAUUUCCUUCUUCGUGUGAAGAUGCUGGAUAGUACCCAAAUCACUUAAAACCUGUUUCCAUUCGCUUUUUACUUAAAAAUAAACAUUU: 0.271
CAUGGACCUGUCUCCAGAGAGAGGAGCCUGAAGUUCGUGGGGCGGGACAGCGUCGGCCUGAUUUCCCGUAAAGGUGUGCAGCCUGAGAGACGGGAAGAGGAGGCCUCUGG: 0.465
AGUCAGCUGUCCUUCACCCUGGGAAAGUCCAUGCCAGCUGUGGACUGCUGGGAGCCAUGUUUGUCACCUUAGUAGAAUGCACCAAUGUUCCCUUCUGCAUCUCUGGCCCU: 2.64
GCACCCAGACUGCUUCGUGUGCAGGGAAUGCCUUGCGCCCUUCUCCGGAGGCAGCUUUUUUGAGCACGAGGGUCGCCCUUUGUGUGAAAACCAUUUCCAUGCUCAGCGUG: 0.455
GCUUCAAUGAUGCUGAGUCUGGAAAAGGGGAGGAGACCCUUGGGAGGACUCCAGGCAGCUGUGCUCCCAGGGCUCAUGUUCUCUACUGGAUUAGGGAUAGGCACCUCUGA: 0.457
UGCUUGGACCUAGUUGGUGUUUGUGUUCUGUAAAGUGAGCACGUUGUCCUCCCAAGAGAAGCACUUCAGUGGUGCAGUGGUAAGAGCCCACAGCAUUGAGGCCAGCCUGA: 0.548
GAGAACGGGAGAACAGGUCUAAGGAAUUGUACCUUGAUGUGCUCUGCAAAGGAGAUAACGAAUGGGGCGCAGGGUAGACAAGAACAAGACCCCUCCCCACAGAGGAAGCC: 0.617

Sample 2
Target: PABPC1L2, full length, GST fusion (mouse, UniProt A0ABA7IW68)
Method: RNAcompete
Form: RNA
Sample: in vitro
Concentration: 20 nM
Notes: 7-mer, probes averaged, single round
Baseline: mean of 7-mers
Reading: higher = stronger binding
Endpoint: 7-mer Z-score
Construct (chain): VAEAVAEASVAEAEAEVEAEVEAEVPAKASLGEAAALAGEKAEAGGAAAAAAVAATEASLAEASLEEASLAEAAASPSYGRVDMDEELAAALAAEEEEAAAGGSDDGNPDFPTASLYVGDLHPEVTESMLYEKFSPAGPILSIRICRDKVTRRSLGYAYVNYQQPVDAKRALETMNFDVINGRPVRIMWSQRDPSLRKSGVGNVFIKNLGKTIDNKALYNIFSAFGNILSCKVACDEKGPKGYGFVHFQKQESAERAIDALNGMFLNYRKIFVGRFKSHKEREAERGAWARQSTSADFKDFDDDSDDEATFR
AUUUCGU: -0.416
AAUCGGC: 0.234
CAUCUUC: -0.434
GCUGGAU: -0.0156
GAGAUAC: -0.05
AGUUGUG: -0.253
GUAUCCA: -0.224
AGGACCU: -0.113
GUAAGUU: -0.246
AAAGGCC: 0.485
UACUAAU: -0.175
CGCCAGU: -0.238
CCAUGCU: -0.338
AUGAACA: 0.222
CCUCGGA: -0.393
CGCAUAA: 0.36
CCCUUCU: -0.469
AGGCUAG: 0.173
GCACAUU: -0.231
ACUAAAC: 0.615
CCCGUGC: -0.335
UUUCUUC: -0.378
CAGCAGG: 0.153
AGUCGAC: -0.251
CCGACGC: -0.255

Sample 3
Target: ABI1, truncated, D143A, DHFR fusion (Arabidopsis thaliana)
Method: DHFR PCA, deep sequencing
Sample: yeast
Notes: methotrexate growth selection, single substitutions
Together with: (+)-ABA 17 µM
Baseline: wild-type fitted maximum
Reading: higher = stronger binding
Endpoint: relative binding score
Parent: PYL1, truncated, DHFR fusion (Arabidopsis thaliana); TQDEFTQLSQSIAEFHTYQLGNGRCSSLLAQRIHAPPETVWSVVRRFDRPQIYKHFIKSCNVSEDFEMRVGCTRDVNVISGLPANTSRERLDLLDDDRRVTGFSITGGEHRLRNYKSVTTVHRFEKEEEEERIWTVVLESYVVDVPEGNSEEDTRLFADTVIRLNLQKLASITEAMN
N85M: 82.4%
I12Y: 25.7%
E125K: 88.9%
S27M: 15.3%
E174T: 67.3%
D65W: 41.2%
F47N: -25%
V78A: 39.2%
F5W: 82.7%
V121M: 6.22%
F56M: 65.1%
L29W: 10.9%

Sample 4
Target: Interferon regulatory factor 3, full length, phosphomimetic (IRF3, Homo sapiens, UniProt Q14653, residues 1-427, S386D/S396D/S398D/S402D/T404D/S405D)
Method: protein-binding microarray
Form: double-stranded DNA, one strand shown
Sample: in vitro
Concentration: 2540 nM top
Notes: 60-bp whole probe
Together with: salmon DNA 0.4 mg/ml
Baseline: random background probes
Reading: higher = stronger binding
Endpoint: fitted relative affinity
Constant ends, left off below: GCCTAGCAC … GTCTTGATTCGCTTGACGCTGCTG
Construct (chain): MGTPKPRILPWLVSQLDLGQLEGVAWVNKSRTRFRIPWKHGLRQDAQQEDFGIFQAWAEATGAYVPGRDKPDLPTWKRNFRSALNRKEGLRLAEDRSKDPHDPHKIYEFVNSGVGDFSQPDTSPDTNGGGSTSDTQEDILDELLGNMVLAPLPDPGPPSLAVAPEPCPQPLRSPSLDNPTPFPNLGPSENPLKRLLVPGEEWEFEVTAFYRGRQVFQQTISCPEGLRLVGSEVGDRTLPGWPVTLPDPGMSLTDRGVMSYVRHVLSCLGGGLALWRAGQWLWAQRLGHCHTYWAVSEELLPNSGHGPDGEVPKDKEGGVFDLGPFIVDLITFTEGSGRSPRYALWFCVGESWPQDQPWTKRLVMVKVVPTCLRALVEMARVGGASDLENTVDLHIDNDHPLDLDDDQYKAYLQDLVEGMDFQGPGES
TGCTTTGGACCCAGGGCTAAGTGCTAG: -0.786 z-score
TCAGGTTTCGGGTATCGGTTAGTGCTA: 4.74 z-score
TTAGGTCTCGGTATCGGTAAGTGCTAG: 1.92 z-score
GACGATTTCAGTATCGAGACGTGCTAG: 2.45 z-score
CCCTGTTTCTACTGTCTGTTTGTGCTA: 1.26 z-score
GACGATTACAGTTCCGAGACGTGCTAG: 0.761 z-score
GACGGCTTCGGGTATCGGGACGTGCTA: -0.449 z-score
GACGATATAGGGTATCGAGACGTGCTA: 0.0101 z-score
GACGGTTTCCTTAGCCTGACGTGCTAG: 4.65 z-score
TCATACCTGAATATCTTACTGTGCTAG: 0.415 z-score
TTAGGACTGGGTTTAGGTTAGTGCTAG: -0.678 z-score
GAAGGTATCGGGTATCGGGACGTGCTA: 1.55 z-score
TTAGATTTCAGTCTCAATTAGTGCTAG: 2.32 z-score
GACGGTATCTGTCTCGGGACGTGCTAG: 2.46 z-score
ATCTTAATAAGGTTTCCAATCGTGCTA: 3.12 z-score
AACGGTTTCGACACTGGGGACGTGCTA: 2.85 z-score
GACGATTTCAGTTCCGAGACGTGCTAG: 3.13 z-score
TGAGATTTCCATTATTGCTTGTGCTAG: 1.83 z-score
TTAGGTTTCCCTTCCCTTTAGTGCTAG: 9.19 z-score
TCATCCATCACTTTCCAACTGTGCTAG: 2.45 z-score
TTAGATTTCGGGTATAGATTAGTGCTA: 1.14 z-score

Sample 5
Target: Prothrombin, mature alpha-thrombin (F2, Homo sapiens, UniProt P00734)
Method: aptamer microarray, sandwich
Form: DNA with 2'F-ANA
Sample: in vitro
Concentration: 200 nM
Notes: whole 15-mer aptamer, many near background
Together with: Cy3 exosite-II aptamer, 400 nM
Reading: higher = stronger binding
Endpoint: mean fluorescence intensity
Sequence: GGTTGGTGTGGTTGG
2'F-ANA at 2 5 7 8 10 13 14: 47.2 a.u.
2'F-ANA at 2 4 8 10 15: 111 a.u.
2'F-ANA at 1 3 5 7 12 13 14: 45.6 a.u.
2'F-ANA at 3 5 6 7 8 9 10 11 12 14 15: 56.3 a.u.
2'F-ANA at 2 3 4 7 10 11 13 14 15: 161 a.u.
2'F-ANA at 2 8 14 15: 162 a.u.
2'F-ANA at 4 8 9 10 15: 80.8 a.u.
2'F-ANA at 1 3 4 5 6 7 8 9 10 14 15: 93.4 a.u.
2'F-ANA at 1 6 13 15: 133 a.u.
2'F-ANA at 4 6 8 9 11 12 15: 362 a.u.
2'F-ANA at 3 4 5 6 10 12 15: 100 a.u.
2'F-ANA at 1 2 3 9 10 13: 63.3 a.u.
2'F-ANA at 1 2 3 5 8 14 15: 111 a.u.
2'F-ANA at 2 3 8 10 12: 523 a.u.
2'F-ANA at 4 7 8 11 12 14: 208 a.u.
2'F-ANA at 1 4 5 8 9 13 14 15: 49.5 a.u.
2'F-ANA at 1 2 4 5 7 8 10 13 14 15: 101 a.u.
2'F-ANA at 4 6 7 9 11 13: 140 a.u.

For quick reference, copied from above (sample 2):
CAUCUUC: -0.434
GCUGGAU: -0.0156
GAGAUAC: -0.05
AGUUGUG: -0.253
GUAUCCA: -0.224
AGGACCU: -0.113
GUAAGUU: -0.246
AAAGGCC: 0.485
UACUAAU: -0.175
CGCCAGU: -0.238
CCAUGCU: -0.338
AUGAACA: 0.222
CCUCGGA: -0.393
CGCAUAA: 0.36
CCCUUCU: -0.469
